Measured values pooled from the literature.
Each line is one published result; not all experiments were run side by side. ± marks the error that the study gave.

Structure (SMILES) | cell line | test | setting | EC50 [nM]
Cc1ccc(CNC(=O)[C@H](CC(C)C)NC(=O)[C@H](CCc2ccccc2)NC(=O)c2cnc(C)cn2)cc1 | HFF | cell viability | 72 h | 35000
FC(F)(F)c1ccnc(-c2cc(C(F)(F)F)ccn2)c1.FC(F)(F)c1ccnc(-c2cc(C(F)(F)F)ccn2)c1.[Cl-].[Cl-].[Ru+2].c1csc(-c2ccc(-c3ccc(-c4ccc(-c5nc6c7cccnc7c7ncccc7c6[nH]5)s4)s3)s2)c1 | SK-MEL-28 | cell viability, resazurin | green light, hypoxia 1% O2 | 200 to 900
CC[C@H](C)[C@H](NC(=O)[C@H](CC(N)=O)NC(=O)[C@H](CCCCN)NC(=O)[C@H](Cc1ccccc1)NC(=O)[C@H](Cc1ccccc1)NC(=O)[C@H](Cc1c[nH]cn1)NC(=O)[C@@H](NC(=O)[C@@H](NC(=O)[C@@H]1CCCN1C(=O)[C@@H](N)CC(N)=O)C(C)C)C(C)C)C(=O)N[C@H](C(=O)N[C@H](C(=O)N[C@@H](C)C(=O)O)[C@@H](C)O)C(C)C | T cell clone Ob.1H8 | T cell proliferation, agonist, [3H]thymidine incorporation | 72 h, peptide-pulsed APC, with: EBV-transformed B cells DR2/DQ6 as APC | > 50000
Cc1ccc(CNC(=O)[C@@H]2Cc3cccc(c3)Oc3cccc(c3)C[C@H](N)C(=O)N[C@@H](CCc3ccccc3)C(=O)N2)cc1 | HFF | cell viability | 72 h | > 50000
CCCCCCCCCCCCCCCC(=O)N[C@@H](CCC(=O)NCCCC[C@H](NC(=O)[C@H](CC(=O)O)NC(=O)[C@H](CO)NC(=O)[C@@H](NC(=O)[C@H](Cc1ccccc1)NC(=O)[C@@H](NC(=O)CNC(=O)[C@H](CCC(N)=O)NC(=O)[C@H](CO)NC(=O)[C@@H](N)Cc1c[nH]cn1)[C@@H](C)O)[C@@H](C)O)C(=O)N[C@@H](CO)C(=O)N[C@@H](CCC(=O)O)C(=O)N[C@@H](Cc1ccc(O)cc1)C(=O)N[C@@H](CC(C)C)C(=O)N[C@@H](CC(=O)O)C(=O)N[C@@H](CO)C(=O)N[C@@H](CCC(=O)O)C(=O)N[C@@H](CCCNC(=N)N)C(=O)N[C@@H](C)C(=O)N[C@@H](CCCNC(=N)N)C(=O)N[C@@H](CC(=O)O)C(=O)N[C@@H](Cc1ccccc1)C(=O)N[C@H](C(=O)N[C@@H](C)C(=O)N[C@@H](Cc1c[nH]c2ccccc12)C(=O)N[C@@H](CC(C)C)C(=O)N[C@@H](CCC(=O)O)C(=O)N[C@@H](C)C(=O)NCC(=O)NCC(=O)O)C(C)C)C(=O)O | human EndoC-βH1 β-cells | cAMP accumulation, agonist | with: 0.1% BSA | 1.05 ± 0.316
CN(C)CC#Cc1ccc(OCCCc2sc(N3CCc4cccc(C(=O)Nc5nc6ccccc6s5)c4C3)nc2C(=O)O)c(F)c1 | RS4-11 | cell growth or viability, ATP luminescence | 48 h | > 5000
Cc1ccc2c(n1)c1nc(C)ccc1c1nc3cc4ccccc4cc3nc21.[Ru+2].c1ccc(-c2cccc(-c3ccccn3)n2)nc1.c1ccncc1 | M1 murine macrophages | cell viability, MTT | 1 h, dark | > 25000
Cc1ccc(CNC(=O)[C@H](CCc2ccccc2)NC(=O)[C@H](CCc2ccccc2)NC(=O)[C@@H](N)Cc2ccncc2)cc1 | HFF | cell viability | 72 h | 68000
FC(F)(F)c1ccnc(-c2cc(C(F)(F)F)ccn2)c1.FC(F)(F)c1ccnc(-c2cc(C(F)(F)F)ccn2)c1.[Cl-].[Cl-].[Ru+2].c1csc(-c2ccc(-c3ccc(-c4nc5c6cccnc6c6ncccc6c5[nH]4)s3)s2)c1 | SK-MEL-28 | cell viability | normoxia, with: green light 523 nm, 100 J/cm2 | 270
NS(=O)(=O)NCC(F)(F)c1ccccc1F | rat hippocampal neurons | neuroprotection, propidium iodide | 4 h, with: hydrogen peroxide 10 µM | 0.09
Cc1ccc(CNC(=O)[C@@H](NC(=O)[C@H](CCc2ccccc2)NC(=O)[C@H](CCc2ccccc2)N(C)Cc2cnccn2)C(C)C)cc1 | HFF | cell viability | 72 h | 61000
COC(=O)[C@]1(C)C=C(C(=O)Nc2cccc(C(=O)Nc3ccc(Nc4nccc(-c5cccnc5)n4)c(C)c3)c2)C(=O)CC1 | SH-SY5Y MKK7 inducible | c-Jun Ser63 phosphorylation, inhibitor, HTRF, item: phospho-c-Jun Ser63 | 6 h, with: doxycycline | 65 ± 7
[Ru+2].c1ccc(-c2ccc3c(n2)c2ncccc2c2nc4cc5ccccc5cc4nc32)nc1.c1ccc(-c2ccc3c(n2)c2ncccc2c2nc4cc5ccccc5cc4nc32)nc1 | M1 murine macrophages | cell viability, MTT | 1 h, dark | > 25000
C=CC(=O)N1CCC(c2cc(C(=O)O)n(C)n2)CC1 | AP1-luc HEK293 | AP1 reporter gene, activator, luciferase | with: FBS stimulation | 260
Cc1cc2cc(O)c(O)cc2c(O)c1-c1c(C)cc2cc(O)c(O)cc2c1O | RS11846 | ATP-lite viability | 72 h | 10000
NS(=O)(=O)NCC(O)c1ccccc1F (stereo not drawn) | rat hippocampal neurons | neuroprotection | medium without antioxidants, with: glutamate 30 µM for 5 min | 3
Cc1ccc(CNC(=O)[C@@H](NC(=O)[C@H](CCc2ccccc2)NC(=O)[C@H](CCc2ccccc2)NCc2cnccn2)C(C)C)cc1 | HFF | cell viability | 72 h | > 50000
Cc1ccc(CC(=O)c2c(O)c(O)cc3c(O)c(-c4c(C)cc5c(C(=O)Cc6ccc(C)cc6)c(O)c(O)cc5c4O)c(C)cc23)cc1 | RS11846 | apoptosis, annexin V/PI flow cytometry | 1-2 d | 3000

Repeated from above:
Structure (SMILES) | cell line | test | setting | EC50 [nM]
Cc1ccc(CNC(=O)[C@H](CC(C)C)NC(=O)[C@H](CCc2ccccc2)NC(=O)c2cnc(C)cn2)cc1 | HFF | cell viability | 72 h | 35000
COC(=O)[C@]1(C)C=C(C(=O)Nc2cccc(C(=O)Nc3ccc(Nc4nccc(-c5cccnc5)n4)c(C)c3)c2)C(=O)CC1 | SH-SY5Y MKK7 inducible | c-Jun Ser63 phosphorylation, inhibitor, HTRF, item: phospho-c-Jun Ser63 | 6 h, with: doxycycline | 65 ± 7
